Published values from different studies.

Structure (SMILES) | test | system | setting | quantity | result
CNC(=O)c1ccc(-c2cnc3ncc(Cc4ccc5ncccc5c4)n3n2)cc1F | ultrafiltration | human normal hepatic function, plasma | oral, 200 mg, 3 h post-dose, mean | fraction unbound | 0.0297
Cc1cc(-c2nccc3c2ccn3CC(=O)Nc2ccc(-c3cnccn3)cn2)ccn1 |  | human, urine | oral, 15 mg once daily, day 1, geometric mean | fraction excreted in urine (fe) | 1.26%
CC(C)n1c(C2CCNCC2)nc2c([N+](=O)[O-])c(Br)c(Br)cc21 |  | human, urine | oral, 50 mg, median, single dose | fraction excreted in urine | 0.02
C=CC(=O)Nc1cc(Nc2ncc(C(=O)OC(C)C)c(-c3cn(C)c4ccccc34)n2)c(OC)cc1N(C)CCN(C)C |  | healthy human, urine | oral, 20 mg single dose, arithmetic mean | fraction of dose excreted | 0.93%
Cn1cc(-c2cn3nccc3c(-c3cnn([C@]4(CC#N)C[C@@H](C#N)C4)c3)n2)cn1 |  | human, urine | oral, 100 mg once daily, day 10, dosing interval geometric mean | fraction excreted unchanged in urine | 1.1%
C[C@@H](Oc1ccc(S(C)(=O)=O)cc1C(=O)N1C[C@@H]2C[C@]2(c2cc(C(F)(F)F)on2)C1)C(F)(F)F |  | elderly humans, urine | oral, 25 mg once daily, 0-24 h, single dose, geometric mean | fraction excreted in urine | 2.08%
CC(C)OC(=O)[C@@H](C)N[P@@](=O)(OC[C@H]1O[C@@H](n2ccc(=O)[nH]c2=O)[C@](C)(Cl)[C@@H]1O)Oc1ccccc1 |  | human, plasma | sponsor value used in model | fraction unbound | 0.577
O=C(c1nc2n(n1)[C@H](c1ccccc1)C[C@@H]2F)C1CC1 |  | human | 25 mg single dose, mean | fraction excreted in urine 0-72 h | 0.2%
CC(C)(Sc1ccncc1-c1ccc(C#N)c2ccccc12)C(=O)O |  | human, urine | oral, 5 mg, together with: febuxostat 0 mg | fraction excreted in urine (0-24 h) | 1.74%
NCCONC(=O)[C@@H]1CC[C@@H]2CN1C(=O)N2OS(=O)(=O)O |  | human male, urine | intravenous infusion, 2 g single dose | fraction excreted in urine (0-8 h) | 71.5%
CN[C@@H]1COc2c(S(=O)(=O)NC(=O)Nc3c4c(cc5c3CCC5)CCC4)cnn2C1 |  | human, urine | oral, 1800 mg, 0-48 h | fraction excreted in urine | 0.137

A few entries again:
Structure (SMILES) | test | system | setting | quantity | result
CNC(=O)c1ccc(-c2cnc3ncc(Cc4ccc5ncccc5c4)n3n2)cc1F | ultrafiltration | human normal hepatic function, plasma | oral, 200 mg, 3 h post-dose, mean | fraction unbound | 0.0297
